{"data": "Results of several laboratories", "partner": "itself", "B1": "sodN mature (Streptomyces coelicolor, UniProt P80735); sequence looked up; chain HCDLPCGVYDPAQARIEAESVKAVQEKMAGNDDPHFQTRATVIKEQRAELAKHHVSVLWSDYFKPPHFEKYPELHQLVNDTLKALSAAKGSKDPATGQKALDYIAQIDKIFWETKKA", "B2": "trfB (Escherichia coli, UniProt P03052); sequence looked up; chain MKKRLTESQFQEAIQGLEVGQQTIEIARGVLVDGKPQATFATSLGLTRGAVSQAVHRVWAAFEDKNLPEGYARVTAVLPEHQAYIVRKWEADAKKKQETKR", "B3": "TSPAN8 C7A/C74A/C75A/C83A/C232A (Homo sapiens, UniProt P19075); sequence looked up; chain MAGVSAAIKYSMFTFNFLFWLCGILILALAIWVRVSNDSQAIFGSEDVGSSSYVAVDILIAVGAIIMILGFLGAAGAIKESRAMLLLFFIGLLLILLLQVATGILGAVFKSKSDRIVNETLYENTKLLSATGESEKQFQEAIIVFQEEFKCCGLVNGAADWGNNFQHYPELCACLDKQRPCQSYNGKQVYKETCISFIKDFLAKNLIIVIGISFGLAVIEILGLVFSMVLYAQIGNK", "B4": "Sting1 138-378 (Mus musculus, UniProt Q3TBT3); sequence looked up; chain LTPAEVSAVCEEKKLNVAHGLAWSYYIGYLRLILPGLQARIRMFNQLHNNMLSGAGSRRLYILFPLDCGVPDNLSVVDPNIRFRDMLPQQNIDRAGIKNRVYSNSVYEILENGQPAGVCILEYATPLQTLFAMSQDAKAGFSREDRLEQAKLFCRTLEEILEDVPESRNNCRLIVYQEPTDGNSFSLSQEVLRHIRQEEKEEVTMNAPMTSVAPPPSVLSQEPRLLISGMDQPLPLRTDLI", "B5": "zwf 1-509 (Synechocystis sp. PCC 6803, UniProt P73411); chain MVTLLENPFRTGLRQERTPEPLILTIFGASGDLTQRKLVPAIYQMKRERRLPPELTVVGFARRDWSHDHFREQMRKGIEEFSTGIGSEDLWNEFAQGLFYCSGNMDDPESYLKLKNFLGELDEKRNTRGNRVFYLAVSPNFFPPGIKQLGAAGMLSDPVKSRIVIEKPFGRDLSSAQSLNRVVQSVCKENQVYRIDHYLGKETVQNLMVFRFANAIFEPLWNRQFVDHVQITVAETVGVEERAGYYESAGALRDMVQNHLMQLFCLTAMDPPNAIDADSIRNEKVKVLQATRLADINNLENAGIRGQYKAGWMGGKPVPGYREEPGVDPSSTTPTFAALKLMVDNWRWQGVPFYLRTGKRMPKKVSEIAIQFRQVPLLIFQSVAHQANPNVLSLRIQPNEGISLRFEAKMPGSELRTRTVDMDFSYGSSFGVAAADAYHRLLLDCMLGDQTLFTRADEVEEAWRVVTPVLSAWDAPSDPLSMPLYEAGTWEPAEAEWLINKDGRRWRRL", "B6": "capsid protein residues 15-end 15-324 (Staphylococcus phage 80alpha, UniProt A4ZFB3); sequence looked up; chain ASNNVKPQVFNPDNVMMHEKKDGTLMNEFTTPILQEVMENSKIMQLGKYEPMEGTEKKFTFWADKPGAYWVGEGQKIETSKATWVNATMRAFKLGVILPVTKEFLNYTYSQFFEEMKPMIAEAFYKKFDEAGILNQGNNPFGKSIAQSIEKTNKVIKGDFTQDNIIDLEALLEDDELEANAFISKTQNRSLLRKIVDPETKERIYDRNSDSLDGLPVVNLKSSNLKRGELITGDFDKLIYGIPQLIEYKIDETAQLSTVKNEDGTPVNLFEQDMVALRATMHVALHIADDKAFAKLVPADKRTDSVPGEV", "B7": "EIF4E2/GIGYF2 52-234 / 35-105 (Homo sapiens); chain 1 AEHPLQYNYTFWYSRRTPGRPTSSQSYEQNIKQIGTFASVEQFWRFYSHMVRPGDLTGHSDFHLFKEGIKPMWEDDANKNGGKWIIRLRKGLASRCWENLILAMLGEQFMVGEEICGAVVSVRFQEDIISIWNKTASDQATTARIRDTLRRVLNLPPNTIMEYKTHTDSIKMPGRLGPQRLLF; chain 2 KYKLADYRYGREEMLALFLKDNKIPSDLLDKEFLPILQEEPLPPLALVPFTEEEQRNFSMSVNSAAVLRLT", "B8": "spo0J K259A (Bacillus subtilis, UniProt P26497); chain MAKGLGKGINALFNQVDLSEETVEEIKIADLRPNPYQPRKHFDDEALAELKESVLQHGILQPLIVRKSLKGYDIVAGERRFRAAKLAGLDTVPAIVRELSEALMREIALLENLQREDLSPLEEAQAYDSLLKHLDLTQEQLAKRLGKSRPHIANHLRLLTLPENIQQLIAEGTLSMGHGRTLLGLKNKNKLEPLVQKVIAEQLNVRQLEQLIQQLNQNVPRETKKKEPVKDAVLKERESYLQNYFGTTVNIKRQKKKGAIEIEFFSNEDLDRILELLSERES", "B9": "clpP2 heptamer (Pseudomonas aeruginosa, UniProt Q9HYR9); sequence looked up; chain MKTDDKDREGGDSHGAIGAKLMEYALKVRKVFVTGGVDEKMAKDVVQQLHILASISDDPIYMFVNSPGGHVESGDMIFDAIRFITPKVIMIGSGSVASAGALIYAAADKENRYSLPNTRFLLHQPSGGIQGPASNIEIYRREIVRMKERLDRIFAEATGQTPEKISADTERDFWLNAEEAVQYGLVNKIIVSEREITLPGQ", "B10": "cfbA 1-143 S11L (Methanocaldococcus jannaschii, UniProt Q58380); chain MEALVLVGHGLRLPYSKELLVKLAEKVKERNLFPIVEIGLMEFSEPTIPQAVKKAIEQGAKRIIVVPVFLAHGIHTTRDIPRLLGLIEDNHEHHHEHSHHHHHHHHHEHEKLEIPEDVEIIYREPIGADDRIVDIIIDRAFGR", "B11": "RBKS N57A (Homo sapiens, UniProt Q9H477); sequence looked up; chain MAASGEPQRQWQEEVAAVVVVGSCMTDLVSLTSRLPKTGETIHGHKFFIGFGGKGAAQCVQAARLGAMTSMVCKVGKDSFGNDYIENLKQNDISTEFTYQTKDAATGTASIIVNNEGQNIIVIVAGANLLLNTEDLRAAANVISRAKVMVCQLEITPATSLEALTMARRSGVKTLFNPAPAIADLDPQFYTLSDVFCCNESEAEILTGLTVGSAADAGEAALVLLKRGCQVVIITLGAEGCVVLSQTEPEPKHIPTEKVKAVDTTGAGDSFVGALAFYLAYYPNLSLEDMLNRSNFIAAVSVQAAGTQSSYPYKKDLPLTLF", "B12": "kwaA (Escherichia coli, UniProt P0DW45); sequence looked up; chain MQRNTYNKVGLYILSLAMLFVFIIILTAKIPFCFTSDCSFIGLKKLVLTNIVPIVCFVFFLFSIYFYNRLKNITKYNGQDSVKITSCQSESYESLTFLATYIVPFMGFSFEDMQKNIAYLLLVVVIGIIFIKTDKYYANPTLALFGFKLYRVNILHPGSGETKNLIAISNDVLKVDDNVYYSFFDEFVFIARKKI", "B13": "rga7 33-307 K193A/K194A/K199A/K201A (Schizosaccharomyces pombe, UniProt O94466); sequence looked up; chain PKVEAILNSELGLAILNDRIKDYLLTCKELAGFFKKRSILEEESGKNLQKLAKSYLETFQSKHHSPQSFSASVITSMEIHEQLANHSLTLQKTLSAFSDQVIEFHKNAERKRKSIKEYAKKQENAYLEAVMQMDKSKSRFKGAETEYNRALDNKNTGDSQAAVGFFAPASNAQLTKLEDEARLKAENAESDMHSKIENAQNVQKQLLCIHRPNYIKQFFSLQREIESSLIANYLRYTKLCESNTLLNGLTIRPQKPTPTNCGLQHALDNINANTD", "B14": "Tomm70 S94E (Mus musculus, UniProt Q9CZW5); sequence looked up; chain MAASKPIEAAMAAAAAPGSGNGVGGGGGTAGPGSGAGTLPRWHVALAIGAPLLLGAGAMYLWSRRRRRREAGGRGDASGLKRNSERKTPEGRAEPALGSGHHDGSGDSLEMSSLDRAQAAKNKGNKYFKAGKYEQAIQCYTEAISLCPTEKNVDLSTFYQNRAAAFEQLQKWKEVAQDCTKAVELNPKYVKALFRRAKAHEKLDNKKECLEDVTAVCILEGFQNEQSMLLADKVLKLLGKENAKEKYKNREPLMPSPQFIKSYFSSFTDDIISQPMLKGEKSDEDKDKEGEALEVKENSGYLKAKQYMEEENYDKIISECSKEIDAQGKYMAEALLLRATFYLLIGSANAAKPDLDKVISLKEANVKLRANALIKRGTMCMQQQQPMLSTQDFNMAAEIDPMNSDVYHHRGQLKILLDLVEEAVADFDACIRLRPKFALAQAQKCFALYRQAYTANNSSQVQAAMKGFEEIIKKFPRCAEGYALYAQALTDQQQFGKADEMYDKCIDLEPDNATTYVHKGLLQLQWKQDLDKGLELISKAIEIDNKCDFAYETMGTIEVQRGNMEKAIDMFNKAINLAKSEMEMAHLYSLCDAAHAQTEVAKKYGLKPPTL", "B15": "PGL-3 1-447 (Caenorhabditis elegans, UniProt G5EBV6); sequence looked up; chain MEANKRQIVEVDGIKSYFFPHLAHYLASNDELLVNNIAQANKLAAFVLGATDKRPSNEEIAEMILPNDSSAYVLAAGMDVCLILGDDFRPKFDSGAEKLSQLGQAHDLAPIIDDEKKISMLARKTKLKKSNDAKILQVLLKVLGAEEAEEKFVELSELSSALDLDFDVYVLAKLLGFASEELQEEIEIIRDNVTDAFEACKPLLKKLMIEGPKIDSVDPFTQLLLTPQEESIEKAVSHIVARFEEASAVEDDESLVLKSQLGYQLIFLVVRSLADGKRDASRTIQSLMPSSVRAEVFPGLQRSVFKSAVFLASHIIQVFLGSMKSFEDWAFVGLAEDLESTWRRRAIAELLKKFRISVLEQCFSQPIPLLPQSELNNETVIENVNNALQFALWITEFYGSESEKKSLNQLQFLSPKSKNLLVDSFKKFAQGLDSKDHVNRIIESLEK", "B16": "ADAR1 127-end 127-1226 K999N (human, UniProt P55265); sequence looked up; chain SSHFQELSIYQDQEQRILKFLEELGEGKATTAHDLSGKLGTPKKEINRVLYSLAKKGKLQKEAGTPPLWKIAVSTQAWNQHSGVVRPDGHSQGAPNSDPSLEPEDRNSTSVSEDLLEPFIAVSAQAWNQHSGVVRPDSHSQGSPNSDPGLEPEDSNSTSALEDPLEFLDMAEIKEKICDYLFNVSDSSALNLAKNIGLTKARDINAVLIDMERQGDVYRQGTTPPIWHLTDKKRERMQIKRNTNSVPETAPAAIPETKRNAEFLTCNIPTSNASNNMVTTEKVENGQEPVIKLENRQEARPEPARLKPPVHYNGPSKAGYVDFENGQWATDDIPDDLNSIRAAPGEFRAIMEMPSFYSHGLPRCSPYKKLTECQLKNPISGLLEYAQFASQTCEFNMIEQSGPPHEPRFKFQVVINGREFPPAEAGSKKVAKQDAAMKAMTILLEEAKAKDSGKSEESSHYSTEKESEKTAESQTPTPSATSFFSGKSPVTTLLECMHKLGNSCEFRLLSKEGPAHEPKFQYCVAVGAQTFPSVSAPSKKVAKQMAAEEAMKALHGEATNSMASDNQPEGMISESLDNLESMMPNKVRKIGELVRYLNTNPVGGLLEYARSHGFAAEFKLVDQSGPPHEPKFVYQAKVGGRWFPAVCAHSKKQGKQEAADAALRVLIGENEKAERMGFTEVTPVTGASLRRTMLLLSRSPEAQPKTLPLTGSTFHDQIAMLSHRCFNTLTNSFQPSLLGRKILAAIIMKKDSEDMGVVVSLGTGNRCVKGDSLSLKGETVNDCHAEIISRRGFIRFLYSELMKYNSQTAKDSIFEPAKGGEKLQIKKTVSFHLYISTAPCGDGALFDKSCSDRAMESTESRHYPVFENPKQGNLRTKVENGEGTIPVESSDIVPTWDGIRLGERLRTMSCSDKILRWNVLGLQGALLTHFLQPIYLKSVTLGYLFSQGHLTRAICCRVTRDGSAFEDGLRHPFIVNHPKVGRVSIYDSKRQSGKTKETSVNWCLADGYDLEILDGTRGTVDGPRNELSRVSKKNIFLLFKKLCSFRYRRDLLRLSYGEAKKAARDYETAKNYFKKGLKDMGYGNWISKPQEEKNFYLCPV", "note": "Each line is one published result; not all experiments were run side by side. “And” joins repeats or separate records; there may be more than shown.", "UniProt A0A348FUE1, sequence (whole entry, looked up)": "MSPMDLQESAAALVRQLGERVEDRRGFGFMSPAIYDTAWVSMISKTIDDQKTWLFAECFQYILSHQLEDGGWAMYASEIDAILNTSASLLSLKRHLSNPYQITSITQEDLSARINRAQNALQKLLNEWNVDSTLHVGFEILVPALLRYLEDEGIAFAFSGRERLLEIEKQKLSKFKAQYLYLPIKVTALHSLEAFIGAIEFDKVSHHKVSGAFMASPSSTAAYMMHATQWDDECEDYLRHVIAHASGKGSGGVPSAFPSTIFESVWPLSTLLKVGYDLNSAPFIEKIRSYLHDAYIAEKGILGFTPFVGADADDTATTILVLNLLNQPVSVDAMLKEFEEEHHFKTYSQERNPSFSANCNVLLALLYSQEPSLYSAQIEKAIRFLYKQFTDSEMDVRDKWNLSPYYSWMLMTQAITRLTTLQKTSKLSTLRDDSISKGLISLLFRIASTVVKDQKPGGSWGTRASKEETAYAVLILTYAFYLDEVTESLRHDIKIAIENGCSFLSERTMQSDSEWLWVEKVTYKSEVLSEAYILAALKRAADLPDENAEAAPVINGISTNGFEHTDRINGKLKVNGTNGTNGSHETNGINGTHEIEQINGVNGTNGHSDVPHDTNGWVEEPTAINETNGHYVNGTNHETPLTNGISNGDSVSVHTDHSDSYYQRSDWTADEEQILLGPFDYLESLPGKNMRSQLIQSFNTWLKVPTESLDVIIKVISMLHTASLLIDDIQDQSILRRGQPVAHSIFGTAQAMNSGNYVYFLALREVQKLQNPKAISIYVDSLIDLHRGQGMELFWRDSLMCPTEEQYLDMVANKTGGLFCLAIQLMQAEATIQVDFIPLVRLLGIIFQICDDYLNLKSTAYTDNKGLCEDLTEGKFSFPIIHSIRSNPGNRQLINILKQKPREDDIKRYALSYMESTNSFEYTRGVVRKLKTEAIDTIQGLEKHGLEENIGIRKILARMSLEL"}
{"Molecule": "B1 (sodN mature)", "assay": "ESI-MS", "setting": "denaturing conditions", "subunits per oligomer": 6}
{"Molecule": "B2 (trfB)", "assay": "SEC", "subunits per oligomer": 2}
{"Molecule": "B3", "assay": "fluorescence intensity fluctuation spectrometry", "test system": "HEK293T", "setting": "in cells", "subunits per oligomer": 2}
{"Molecule": "B4 (Sting1 138-378)", "assay": "SEC", "subunits per oligomer": 2}
{"Molecule": "B5 (zwf 1-509)", "assay": "SEC-MALS", "subunits per oligomer": 4}
{"Molecule": "B6", "assay": "cryo-EM", "subunits per oligomer": 240}
{"Molecule": "protein (Penicillium verruculosum, UniProt A0A348FUE1)", "assay": "native gel", "subunits per oligomer": 4}
{"Molecule": "B7 (EIF4E2/GIGYF2 52-234 / 35-105)", "assay": "SAXS", "subunits per oligomer": 2}
{"Molecule": "B8 (spo0J K259A)", "assay": "SEC-MALS", "subunits per oligomer": 2}
{"Molecule": "B9 (clpP2 heptamer)", "assay": "pull-down, SEC", "subunits per oligomer": 7}
{"Molecule": "B10 (cfbA 1-143 S11L)", "assay": "SEC", "subunits per oligomer": 2}
{"Molecule": "B11 (RBKS N57A)", "assay": "mass photometry", "subunits per oligomer": 2}
{"Molecule": "B12 (kwaA)", "assay": "SEC", "subunits per oligomer": 4}
{"Molecule": "B13", "assay": "cross-linking", "subunits per oligomer": "4 and 3 and 2"}
{"Molecule": "B14 (Tomm70 S94E)", "assay": "native PAGE", "subunits per oligomer": 2}
{"Molecule": "B15 (PGL-3 1-447)", "assay": "mass photometry", "subunits per oligomer": 2}
{"Molecule": "B16 (ADAR1 127-end 127-1226 K999N)", "assay": "SEC", "subunits per oligomer": 2}
{"note": "Repeated from above:"}
{"Molecule": "B6", "assay": "cryo-EM", "subunits per oligomer": 240}
